Assay results from different studies.
Protocols differ between the studies behind these lines.
Organism: Staphylococcus aureus

SMILES | assay | system | conditions | MIC
FC(F)(F)c1ccc(Nc2cc(C(F)(F)F)nc3cc(C(F)(F)F)ccc23)nc1 |  |  |  | 0.125 to 0.25 µg/mL
N=C(N)NCCC[C@H](NC(=O)[C@H](Cc1c[nH]cn1)NC(=O)[C@@H]1CCCN1C(=O)[C@H](CS)NC(=O)[C@@H]1CCCN1)C(=O)N[C@@H](CS)C(=O)O | broth microdilution | MTCC 96 | 37 °C | 125 µg/mL
CC[C@H](C)[C@H](NC(=O)[C@H](CO)NC(=O)[C@H](CC(C)C)NC(=O)[C@H](Cc1ccccc1)NC(=O)CN)C(=O)N[C@@H](CC(C)C)C(=O)N[C@@H](CCCCN)C(=O)N[C@@H](CCCCN)C(=O)N[C@H](C(=O)N[C@@H](CC(C)C)C(=O)N1CCC[C@H]1C(=O)N[C@@H](CCCCN)C(=O)N[C@H](C(=O)N[C@@H](CCSC)C(=O)N[C@@H](C)C(=O)N[C@@H](Cc1c[nH]cn1)C(=O)N[C@@H](CCSC)C(=O)N[C@@H](CCCCN)C(N)=O)C(C)C)C(C)C | broth microdilution | USA300 LAC | 37 °C | 12.5 to 25 µM
CC(C)C[C@H](NC(=O)CN)C(=O)N[C@@H](Cc1ccccc1)C(=O)N[C@@H](CCCCN)C(=O)N[C@@H](CC(C)C)C(=O)N[C@@H](CC(C)C)C(=O)N[C@@H](CCCCN)C(=O)N[C@@H](CCCCN)C(=O)N[C@@H](CC(C)C)C(=O)N[C@@H](CC(C)C)C(=O)N[C@@H](CCCCN)C(=O)N[C@@H](CC(C)C)C(=O)N[C@@H](CC(C)C)C(=O)N[C@@H](CCCCN)C(N)=O |  | ATCC 43300, CAMHB | 18 h, 37 °C | > 20 µM
CCCCCCCC1CC(=O)c2c(O)cc(O)cc2O1 (stereo not shown) | broth microdilution | MRSA NRS70 |  | 3.13 to 6.25 µg/mL
CC(C)C[C@H](NC(=O)[C@H](C)NC(=O)[C@H](CCCCN)NC(=O)[C@H](C)NC(=O)[C@H](C)NC(=O)CNC(=O)[C@H](CCCCN)NC(=O)[C@H](CC(C)C)NC(=O)[C@H](CC(C)C)NC(=O)[C@H](CC(=O)O)NC(=O)[C@H](CCCCN)NC(=O)[C@H](Cc1ccccc1)NC(=O)CN)C(=O)N[C@H](C(=O)N[C@@H](CCCCN)C(=O)N[C@H](C(=O)N[C@H](C(=O)N[C@@H](CC(C)C)C(=O)N[C@@H](Cc1ccccc1)C(N)=O)C(C)C)[C@@H](C)O)C(C)C | broth microdilution | USA300 LAC | 37 °C | 3.1 µM
CC[C@H](C)[C@H](NC(=O)[C@H](CCCNC(=N)N)NC(=O)[C@@H]1CCCN1C(=O)[C@@H]1CCCN1C(=O)[C@H](CC(C)C)NC(=O)[C@H](CCCNC(=N)N)NC(=O)[C@@H]1CCCN1C(=O)[C@@H]1CCCN1C(=O)[C@H](Cc1ccccc1)NC(=O)[C@H](Cc1ccccc1)NC(=O)[C@@H]1CCCN1C(=O)[C@@H]1CCCN1C(=O)[C@@H]1CCCN1C(=O)[C@H](CCCNC(=N)N)NC(=O)[C@@H]1CCCN1C(=O)[C@H](CCCNC(=N)N)NC(=O)[C@@H]1CCCN1C(=O)[C@H](CC(C)C)NC(=O)[C@H](Cc1ccc(O)cc1)NC(=O)[C@@H]1CCCN1C(=O)[C@@H]1CCCN1C(=O)[C@H](CCCNC(=N)N)NC(=O)[C@@H]1CCCN1C(=O)[C@H](CCCNC(=N)N)NC(=O)[C@H](CCCNC(=N)N)NC(=O)[C@@H](N)CCCNC(=N)N)C(=O)N1CCC[C@H]1C(=O)N1CCC[C@H]1C(=O)NCC(=O)N[C@@H](Cc1ccccc1)C(=O)N1CCC[C@H]1C(=O)N1CCC[C@H]1C(=O)N[C@@H](CCCNC(=N)N)C(=O)N[C@@H](Cc1ccccc1)C(=O)N1CCC[C@H]1C(=O)N1CCC[C@H]1C(=O)N[C@@H](CCCNC(=N)N)C(=O)N[C@@H](Cc1ccccc1)C(=O)N1CCC[C@H]1C(N)=O | broth microdilution | media-adapted JE2 | 18 to 20 h | 4 µg/mL
CC(C)[C@H](NC(=O)[C@H](CCCCN)NC(=O)CNC(=O)CNC(=O)[C@H](CCC(N)=O)NC(=O)[C@H](CCCCN)NC(=O)CNC(=O)[C@H](CCCNC(=N)N)NC(=O)CNC(=O)[C@@H](N)CCCCN)C(=O)N[C@@H](CCCNC(=N)N)C(=O)N[C@@H](C)C(=O)N[C@@H](CCCCN)C(=O)N[C@@H](C)C(=O)N[C@@H](CCCCN)C(=O)N[C@H](C(=O)N[C@@H](CCCNC(=N)N)C(=O)N[C@@H](CO)C(=O)N[C@@H](CO)C(=O)O)[C@@H](C)O | broth microdilution | USA300 LAC | 37 °C | > 84 µM
CC[C@H](C)[C@H](N)C(=O)N[C@@H](CC(N)=O)C(=O)N[C@@H](CC(C)C)C(=O)N[C@@H](CCCCN)C(=O)N[C@@H](C)C(=O)N[C@@H](CCCCN)C(=O)N[C@@H](C)C(=O)N[C@@H](C)C(=O)N[C@@H](CC(C)C)C(=O)N[C@@H](C)C(=O)N[C@@H](CCCCN)C(=O)N[C@@H](CCCCN)C(=O)N[C@@H](CC(C)C)C(=O)N[C@@H](CC(C)C)C(N)=O | broth microdilution |  |  | > 2000 µg/mL
CC(C)C[C@H](NC(=O)[C@H](C)NC(=O)[C@H](CCCCN)NC(=O)[C@H](CC(C)C)NC(=O)[C@H](CC(C)C)NC(=O)[C@H](CCCCN)NC(=O)[C@H](CCCCN)NC(=O)[C@H](CC(C)C)NC(=O)[C@H](CC(C)C)NC(=O)[C@H](CCCCN)NC(=O)[C@H](CC(C)C)NC(=O)[C@H](CC(C)C)NC(=O)[C@@H](N)CCCCN)C(=O)NCC(N)=O |  | ATCC 43300, CAMHB | 18 h, 37 °C | 10 µM
Cn1ccc(=O)nc1Sc1ccc([N+](=O)[O-])cc1[N+](=O)[O-] | microbial growth | ATCC25923 |  | 64.5 µg/mL
CC[C@H](C)[C@H](NC(=O)[C@H](CC(=O)O)NC(=O)[C@H](Cc1ccccc1)NC(=O)[C@H](CC(C)C)NC(=O)CN)C(=O)N[C@H](C(=O)N[C@@H](CCCCN)C(=O)N[C@@H](CCCCN)C(=O)N[C@H](C(=O)N[C@H](C(=O)NCC(=O)N[C@@H](C)C(=O)N[C@@H](CC(C)C)C(=O)N[C@@H](CCCCN)C(N)=O)C(C)C)C(C)C)C(C)C |  | ATCC 43300, CAMHB | 18 h, 37 °C | > 22 µM
CN[C@H](CC(C)C)C(=O)N[C@H]1C(=O)N[C@@H](CC(N)=O)C(=O)N[C@H]2C(=O)N[C@H]3C(=O)N[C@H](C(=O)N[C@H](C(=O)O)c4cc(O)cc(O)c4-c4cc3ccc4O)[C@H](O)c3ccc(c(Cl)c3)Oc3cc2cc(c3O[C@@H]2O[C@H](CO)[C@@H](O)[C@H](O)[C@H]2O[C@H]2C[C@](C)(N)[C@H](O)[C@H](C)O2)Oc2ccc(cc2Cl)[C@H]1O |  | MRSA USA300 |  | 0.5 to 1 µM

Excerpt of the above:
SMILES | assay | system | conditions | MIC
CC[C@H](C)[C@H](NC(=O)[C@H](CCCNC(=N)N)NC(=O)[C@@H]1CCCN1C(=O)[C@@H]1CCCN1C(=O)[C@H](CC(C)C)NC(=O)[C@H](CCCNC(=N)N)NC(=O)[C@@H]1CCCN1C(=O)[C@@H]1CCCN1C(=O)[C@H](Cc1ccccc1)NC(=O)[C@H](Cc1ccccc1)NC(=O)[C@@H]1CCCN1C(=O)[C@@H]1CCCN1C(=O)[C@@H]1CCCN1C(=O)[C@H](CCCNC(=N)N)NC(=O)[C@@H]1CCCN1C(=O)[C@H](CCCNC(=N)N)NC(=O)[C@@H]1CCCN1C(=O)[C@H](CC(C)C)NC(=O)[C@H](Cc1ccc(O)cc1)NC(=O)[C@@H]1CCCN1C(=O)[C@@H]1CCCN1C(=O)[C@H](CCCNC(=N)N)NC(=O)[C@@H]1CCCN1C(=O)[C@H](CCCNC(=N)N)NC(=O)[C@H](CCCNC(=N)N)NC(=O)[C@@H](N)CCCNC(=N)N)C(=O)N1CCC[C@H]1C(=O)N1CCC[C@H]1C(=O)NCC(=O)N[C@@H](Cc1ccccc1)C(=O)N1CCC[C@H]1C(=O)N1CCC[C@H]1C(=O)N[C@@H](CCCNC(=N)N)C(=O)N[C@@H](Cc1ccccc1)C(=O)N1CCC[C@H]1C(=O)N1CCC[C@H]1C(=O)N[C@@H](CCCNC(=N)N)C(=O)N[C@@H](Cc1ccccc1)C(=O)N1CCC[C@H]1C(N)=O | broth microdilution | media-adapted JE2 | 18 to 20 h | 4 µg/mL
CC(C)[C@H](NC(=O)[C@H](CCCCN)NC(=O)CNC(=O)CNC(=O)[C@H](CCC(N)=O)NC(=O)[C@H](CCCCN)NC(=O)CNC(=O)[C@H](CCCNC(=N)N)NC(=O)CNC(=O)[C@@H](N)CCCCN)C(=O)N[C@@H](CCCNC(=N)N)C(=O)N[C@@H](C)C(=O)N[C@@H](CCCCN)C(=O)N[C@@H](C)C(=O)N[C@@H](CCCCN)C(=O)N[C@H](C(=O)N[C@@H](CCCNC(=N)N)C(=O)N[C@@H](CO)C(=O)N[C@@H](CO)C(=O)O)[C@@H](C)O | broth microdilution | USA300 LAC | 37 °C | > 84 µM
